Results collected from several papers.
Parts stem from different laboratories: compare values within a part only.

Set 1 — method: RNA Bind-n-Seq; molecule type: RNA; medium: in vitro; concentration: 365 nM; relative to: no-protein control; reading: higher = stronger binding
Target: RNA binding protein fox-1 homolog 2, RRM domain, GST-SBP tag (RBFOX2, Homo sapiens, UniProt O43251-10, residues 100-194)
Setting: natural RNA segment, single round, ends assumed
Shared flanks, not repeated: GGGAGUUCUACAGUCCGACGAUC … UGGAAUUCUCGGGUGCCAA
Construct (chain): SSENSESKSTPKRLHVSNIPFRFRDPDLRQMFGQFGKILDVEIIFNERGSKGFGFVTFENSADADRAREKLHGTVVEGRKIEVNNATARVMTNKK
`CUCUCUCUGGCGCACUUUCCUGAAGCCUCUUAUUAACUCCCAUCUCCAGAAGCACCUCAACAAUGUCAGUGGCUGAGGCUGCACUCAGAGGGAUGACUGCUGGGGGUAGA` — result for “RBNS enrichment (R)”: 0.474.
`UCACUCUUUCUUCUCUCUUUGUCCCGGAUAGGCUAAUCAAUACCCUUGGCACUGAUGGGCACUGGAAAACAUAGAGUAGACCUGAGAUGCUGGUCAAGCCCCCUUUGAUU`: “RBNS enrichment (R)” 0.301.
`AAGGGAAAUGGAGAGAUUUUUCCUUUUAGCUCUGCUGGUCAGAGAUUAAGCCACACCUUUCCAUUUUUCAAUGCUGCAUAUUUAAUCUGCAAAAAAAAGUUAAGCCAUAA` — result for “RBNS enrichment (R)”: 0.351.
`CUGGUCAGCACAGUCCCCAGCGGAGGCUCAUGGUGUCUCAUUAAACCAUCACAUACCAGUAACUCGGUGGGCAGGGAGUCUGUUCCCCCGUCCUUGCAUUCCGCUGGCUG`: “RBNS enrichment (R)” 0.333.
Under “RBNS enrichment (R)”, `GGUUGCUUUUUUCUGGGGUCUUUGAGCUCCAAAAAAUAAACACUUCCUUUGAGGGAGAGCACACCUGCUCUCGAGUUCCUGGAGUAUCAUCGUUUUAGUACCCAAGCGUU` is recorded as 0.26.

Set 2 — method: Spec-seq; molecule type: double-stranded DNA, one strand shown; medium: in vitro; concentration: not given; setting: whole probe, mean of replicates; relative to: not given; reading: lower = stronger binding
Target: POU domain, class 5, transcription factor 1, POU domain (Pou5f1, Mus musculus, UniProt P20263, residues 131-289)
UniProt P20263, sequence (131-289, looked up): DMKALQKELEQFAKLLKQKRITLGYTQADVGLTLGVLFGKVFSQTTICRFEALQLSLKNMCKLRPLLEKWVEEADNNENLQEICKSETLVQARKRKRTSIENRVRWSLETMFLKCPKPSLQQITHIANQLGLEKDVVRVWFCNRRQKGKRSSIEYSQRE
Shared flanks, not repeated: GAGTCGTCTCGTCAGCACAT … CCGTAGAGCACTCAGGTC
Under “relative binding energy”, `TTTAAT` is recorded as -0.64 ln ratio.
Under “relative binding energy”, `CACAAT` is recorded as 0.289 ln ratio.
For `GCATAC`, “relative binding energy” read -1.29 ln ratio.
`TCCGAT` — result for “relative binding energy”: 0.334 ln ratio.
For `ACGTAT`, “relative binding energy” read 0.297 ln ratio.
Under “relative binding energy”, `GCTCAG` is recorded as 0.73 ln ratio.

Set 3 — method: protein binding microarray; molecule type: double-stranded DNA, one strand shown; medium: in vitro; concentration: not given; relative to: not given; reading: higher = stronger binding
Target: Histone acetyltransferase KAT6A, both winged helices, GST fusion (KAT6A, Homo sapiens, UniProt Q92794, residues 1-181)
Setting: 8-mer, flanks averaged, mean of 2 arrays, mostly near background
Residues (chain): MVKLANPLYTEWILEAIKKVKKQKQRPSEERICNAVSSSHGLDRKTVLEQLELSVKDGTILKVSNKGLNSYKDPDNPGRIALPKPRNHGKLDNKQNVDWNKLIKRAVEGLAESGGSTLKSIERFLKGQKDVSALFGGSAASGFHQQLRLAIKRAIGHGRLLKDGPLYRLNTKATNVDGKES
`GATGTCAA` has an E-score of -0.0173.
With `GGCAGGAA` the E-score was -0.0992.
`AGGGCTCC` has an E-score of -0.0727.
The E-score of `AGGGGGAA` is reported as -0.273.
With `ATACAGTG` the E-score was -0.164.
For `CGCTGGTA`, the E-score was 0.0439.
The E-score of `ACGACACC` is reported as -0.0269.
For `CCTGTTAG`, the E-score was -0.106.
The E-score of `TCTGGTCA` is reported as -0.224.
The E-score of `ATCGCTAC` is reported as 0.154.

Other studies, line by line
`PhoQ, residues 284 288 289 292 302 303 SSTLLI` gave a fold induction of 5.91 (PhoP, residues 12 14 15 18 19 GQALL (Escherichia coli, UniProt P23836); Sort-seq, item: YFP reporter; E. coli; PhoQ-PhoP variant library, added: 10 µM Mg2+; relative to: high Mg2+ state, higher = stronger signaling).

Repeated from above (set 3):
The E-score of `ACGACACC` is reported as -0.0269.
`AGGGCTCC` has an E-score of -0.0727.
`GATGTCAA` has an E-score of -0.0173.
